# Assay results gathered from unrelated publications.
# Each line is one published result; not all experiments were run side by side. Values joined by “and” are separate records of one study, mostly repeats; a detail may differ. ± marks the error that the study gave.
# Chain of UniProt P20813 (whole entry, looked up): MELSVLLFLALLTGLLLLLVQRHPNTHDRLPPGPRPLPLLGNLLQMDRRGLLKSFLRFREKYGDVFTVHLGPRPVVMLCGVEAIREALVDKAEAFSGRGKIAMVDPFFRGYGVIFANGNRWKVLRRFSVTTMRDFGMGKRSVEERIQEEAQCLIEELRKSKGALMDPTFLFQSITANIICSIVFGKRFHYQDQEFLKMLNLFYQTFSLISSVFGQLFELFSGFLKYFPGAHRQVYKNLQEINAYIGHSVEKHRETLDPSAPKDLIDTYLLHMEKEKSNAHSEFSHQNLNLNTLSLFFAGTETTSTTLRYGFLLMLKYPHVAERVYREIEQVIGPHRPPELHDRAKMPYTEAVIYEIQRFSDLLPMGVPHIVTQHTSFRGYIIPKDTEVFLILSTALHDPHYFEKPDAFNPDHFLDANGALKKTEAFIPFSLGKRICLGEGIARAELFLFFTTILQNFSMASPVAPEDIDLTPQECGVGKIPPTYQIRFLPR
Compound,tested on,assay,system,setting,scale,endpoint,value
CNC(=O)C1CCCN(C(=O)C2CC3CCC2N3C(=O)[C@@H]2C[C@@H](O)CN2C(=O)NCc2cccc(Cl)c2F)C1 (mixture of isomers),"Cytochrome P450 2B6 (CYP2B6, Homo sapiens, UniProt P20813)",preincubation without NADPH,human,0.206 µM,baseline: negative control,remaining activity,105% and 99.9%
O=C1C2CC3CC1CC(C(=O)N1CCN(c4ccc([N+](=O)[O-])c5ncccc45)CC1)(C3)C2,Salmonella typhimurium,Ames test,TA98,"0.78 µg/well, with S9",baseline: vehicle,revertant fold increase,1.1
COC1CN([C@H]2CC[C@H]([C@@]3(C)Oc4c(Cl)cc(C(=O)NCc5c(SC)cc(C)[nH]c5=O)c(C)c4O3)CC2)C1,,"RNA-seq, item: CFAP43 mouse homolog","mouse, HT-1376 xenograft, whole blood",dose not given,baseline: vehicle,log2 fold change,0.545
CCN(CC)CC#CCNc1ccnc2cc(Cl)ccc12,Salmonella typhimurium,mini-Ames test,TA97a,"1000.0 µg/well, without S9",,revertants per well,0
CC[C@H](C)[C@@H]1NC(=O)[C@H](Cc2ccc(O)cc2)NC(=O)CCCSC[C@@H](C(=O)N(CC(=O)N[C@@H](CC(C)C)C(=O)NCC(N)=O)Cc2ccc(F)cc2)NC(=O)[C@H](CC(N)=O)NC(=O)[C@H](CCC(N)=O)NC1=O,,,human,"intranasal, 200 µg single dose",,subjects with any TEAE,67%
Cc1ncsc1-c1ccc(C(C)NC(=O)C2CC(O)CN2C(=O)C(NC(=O)CCCCCCCCCCN2CCCC(Nc3ncc(Cl)c(Nc4ccccc4S(=O)(=O)C(C)C)n3)C2)C(C)(C)C)cc1 (stereo not drawn),22Rv1,"RNA-seq, item: ZNF184 mRNA",,concentration not given,baseline: DMSO,log2 fold change,-1.14
C=C(NC(=O)c1csc(-c2nc3c(cc2O)-c2nc(cs2)C(=O)NC(C(C)O)C(=O)NC(=C(C)OC)c2nc(cs2)C(=O)NC2c4nc(cs4)C(=O)NC(COC(=O)c4c5c6c(cccc6n4O)COC(=O)C(OC4CC(C)(O)C(N(C)C)C(C)O4)C2OC5)c2nc-3cs2)n1)C(N)=O (stereo not drawn),,,"male Sprague-Dawley rat, plasma","intravenous, 18 mg/kg, single dose, infusion",,Tmax,4.8 min
O=C1NC2(CC2)COc2ncc(F)cc2[C@H]2COCCN2c2ccn3ncc1c3n2,CHL cells,chromosomal aberration test,,"5 µg/mL, 24 h, without S9 mix",,cells with structural aberrations,1%
CNS(=O)(=O)Nc1nccc(Cc2c(C)c3ccc(Oc4ncccc4F)cc3oc2=O)c1F,SW 1116,cell viability,,7 days,,IC50,14.5 nM
CC(C)OCCOCc1ccc(OCC(O)CN(N=O)C(C)C)cc1 (stereo not drawn),Salmonella typhimurium,Ames test,TA1535,"15.8 µg/plate, 30 % hamster S9",baseline: solvent control,revertant fold increase,1.5 fold
Cc1cc(=O)c2c(O)c3c(O[C@@H]4O[C@H](CO)[C@@H](O)[C@H](O)[C@H]4O)cc(O)cc3cc2o1,HK-2 co-cultured with HepaRG,MTT,,"16.67 µM, 48 h",baseline: untreated control,cell viability,90.3 ± 4.81%
CN1CCCNC(=O)c2cccc(c2)C(=O)NCCCN(C)CCCNc2cccc3c2C(=O)c2cccc(c2C3=O)NCCC1,SAS,"RNA-Seq, item: RAB35 mRNA",,"1 µM, 6 h",baseline: untreated cells,log2 fold change,-1.03

# A few entries again:
Compound,tested on,assay,system,setting,scale,endpoint,value
CN1CCCNC(=O)c2cccc(c2)C(=O)NCCCN(C)CCCNc2cccc3c2C(=O)c2cccc(c2C3=O)NCCC1,SAS,"RNA-Seq, item: RAB35 mRNA",,"1 µM, 6 h",baseline: untreated cells,log2 fold change,-1.03
Cc1ncsc1-c1ccc(C(C)NC(=O)C2CC(O)CN2C(=O)C(NC(=O)CCCCCCCCCCN2CCCC(Nc3ncc(Cl)c(Nc4ccccc4S(=O)(=O)C(C)C)n3)C2)C(C)(C)C)cc1 (stereo not drawn),22Rv1,"RNA-seq, item: ZNF184 mRNA",,concentration not given,baseline: DMSO,log2 fold change,-1.14
